Measured values from different studies.
Compare with care: the assays were run in different laboratories.
UniProt P80192, sequence (whole entry, looked up): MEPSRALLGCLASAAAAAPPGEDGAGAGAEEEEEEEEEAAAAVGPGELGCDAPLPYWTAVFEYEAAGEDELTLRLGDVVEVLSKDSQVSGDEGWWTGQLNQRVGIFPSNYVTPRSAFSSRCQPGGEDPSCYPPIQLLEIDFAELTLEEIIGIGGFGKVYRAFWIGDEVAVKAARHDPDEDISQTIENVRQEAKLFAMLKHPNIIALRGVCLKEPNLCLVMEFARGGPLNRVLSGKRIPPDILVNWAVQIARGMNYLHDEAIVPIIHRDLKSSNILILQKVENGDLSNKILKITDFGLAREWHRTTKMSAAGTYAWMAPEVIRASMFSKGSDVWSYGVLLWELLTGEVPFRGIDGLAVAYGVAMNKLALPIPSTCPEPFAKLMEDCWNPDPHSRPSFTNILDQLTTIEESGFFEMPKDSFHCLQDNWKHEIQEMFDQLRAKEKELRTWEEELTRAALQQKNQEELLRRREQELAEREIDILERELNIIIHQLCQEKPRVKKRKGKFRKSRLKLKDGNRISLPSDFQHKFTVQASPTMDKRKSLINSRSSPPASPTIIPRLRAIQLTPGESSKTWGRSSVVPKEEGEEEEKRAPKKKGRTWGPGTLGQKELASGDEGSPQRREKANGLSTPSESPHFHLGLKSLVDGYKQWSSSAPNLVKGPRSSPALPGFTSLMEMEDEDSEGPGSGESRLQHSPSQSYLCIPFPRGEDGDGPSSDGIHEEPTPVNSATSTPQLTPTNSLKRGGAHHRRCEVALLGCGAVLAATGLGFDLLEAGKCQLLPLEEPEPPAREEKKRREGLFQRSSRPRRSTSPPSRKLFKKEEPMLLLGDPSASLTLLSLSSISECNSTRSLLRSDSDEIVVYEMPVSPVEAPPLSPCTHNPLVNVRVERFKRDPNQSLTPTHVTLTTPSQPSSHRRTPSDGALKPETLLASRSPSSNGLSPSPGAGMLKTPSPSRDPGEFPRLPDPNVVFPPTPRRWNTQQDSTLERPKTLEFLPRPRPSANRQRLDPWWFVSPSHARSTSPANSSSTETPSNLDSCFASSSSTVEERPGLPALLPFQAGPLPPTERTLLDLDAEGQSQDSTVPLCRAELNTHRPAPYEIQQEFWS
UniProt Q8WXR4, sequence (whole entry, looked up): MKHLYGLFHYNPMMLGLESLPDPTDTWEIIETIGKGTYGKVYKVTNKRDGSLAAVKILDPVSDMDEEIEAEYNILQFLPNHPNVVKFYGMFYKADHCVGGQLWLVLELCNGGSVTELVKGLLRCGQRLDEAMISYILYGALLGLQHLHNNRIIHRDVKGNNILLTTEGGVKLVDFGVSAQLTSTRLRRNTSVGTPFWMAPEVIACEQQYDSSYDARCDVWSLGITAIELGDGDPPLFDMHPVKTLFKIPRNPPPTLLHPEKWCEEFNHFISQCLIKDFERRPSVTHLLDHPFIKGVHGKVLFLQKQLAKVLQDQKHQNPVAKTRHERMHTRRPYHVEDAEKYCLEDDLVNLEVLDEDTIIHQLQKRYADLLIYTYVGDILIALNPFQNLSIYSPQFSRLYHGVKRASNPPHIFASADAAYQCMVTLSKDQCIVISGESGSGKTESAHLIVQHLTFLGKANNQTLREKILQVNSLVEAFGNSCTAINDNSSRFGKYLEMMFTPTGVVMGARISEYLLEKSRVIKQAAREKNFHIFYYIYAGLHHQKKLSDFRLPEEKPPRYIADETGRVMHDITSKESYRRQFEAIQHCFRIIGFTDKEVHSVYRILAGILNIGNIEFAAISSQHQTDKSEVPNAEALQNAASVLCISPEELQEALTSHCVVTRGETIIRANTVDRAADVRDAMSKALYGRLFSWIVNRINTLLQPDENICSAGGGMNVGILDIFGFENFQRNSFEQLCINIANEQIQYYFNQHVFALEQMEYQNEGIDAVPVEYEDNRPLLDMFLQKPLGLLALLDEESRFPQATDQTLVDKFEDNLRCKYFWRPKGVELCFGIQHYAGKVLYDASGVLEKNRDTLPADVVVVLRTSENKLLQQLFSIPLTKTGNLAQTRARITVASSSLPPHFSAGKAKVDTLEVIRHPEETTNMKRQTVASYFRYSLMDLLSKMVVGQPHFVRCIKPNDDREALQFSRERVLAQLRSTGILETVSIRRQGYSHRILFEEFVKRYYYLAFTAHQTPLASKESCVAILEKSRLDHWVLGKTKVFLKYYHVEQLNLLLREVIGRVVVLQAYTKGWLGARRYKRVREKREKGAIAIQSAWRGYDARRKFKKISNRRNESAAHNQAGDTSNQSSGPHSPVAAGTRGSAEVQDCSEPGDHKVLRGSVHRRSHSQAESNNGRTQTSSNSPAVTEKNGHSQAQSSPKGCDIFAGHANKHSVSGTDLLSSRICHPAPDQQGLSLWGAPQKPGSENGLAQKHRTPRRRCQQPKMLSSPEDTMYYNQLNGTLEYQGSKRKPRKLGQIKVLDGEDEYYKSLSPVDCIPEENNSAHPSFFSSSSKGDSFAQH
UniProt Q8TDR2, sequence (whole entry, looked up): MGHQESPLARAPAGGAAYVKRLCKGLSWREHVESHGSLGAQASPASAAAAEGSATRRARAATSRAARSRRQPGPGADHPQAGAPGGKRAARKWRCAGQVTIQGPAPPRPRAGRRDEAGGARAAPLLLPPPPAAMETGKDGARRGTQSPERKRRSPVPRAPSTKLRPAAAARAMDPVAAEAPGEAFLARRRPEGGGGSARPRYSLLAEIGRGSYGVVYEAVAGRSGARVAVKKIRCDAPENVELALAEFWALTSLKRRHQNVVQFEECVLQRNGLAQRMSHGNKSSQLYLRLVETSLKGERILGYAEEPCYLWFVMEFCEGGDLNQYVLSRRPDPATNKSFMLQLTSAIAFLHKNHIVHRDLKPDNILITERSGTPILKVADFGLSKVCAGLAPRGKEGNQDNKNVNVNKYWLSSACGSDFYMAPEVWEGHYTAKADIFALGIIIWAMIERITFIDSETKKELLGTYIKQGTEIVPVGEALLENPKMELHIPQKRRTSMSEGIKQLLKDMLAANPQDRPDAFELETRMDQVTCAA
UniProt Q9H0K1, sequence (whole entry, looked up): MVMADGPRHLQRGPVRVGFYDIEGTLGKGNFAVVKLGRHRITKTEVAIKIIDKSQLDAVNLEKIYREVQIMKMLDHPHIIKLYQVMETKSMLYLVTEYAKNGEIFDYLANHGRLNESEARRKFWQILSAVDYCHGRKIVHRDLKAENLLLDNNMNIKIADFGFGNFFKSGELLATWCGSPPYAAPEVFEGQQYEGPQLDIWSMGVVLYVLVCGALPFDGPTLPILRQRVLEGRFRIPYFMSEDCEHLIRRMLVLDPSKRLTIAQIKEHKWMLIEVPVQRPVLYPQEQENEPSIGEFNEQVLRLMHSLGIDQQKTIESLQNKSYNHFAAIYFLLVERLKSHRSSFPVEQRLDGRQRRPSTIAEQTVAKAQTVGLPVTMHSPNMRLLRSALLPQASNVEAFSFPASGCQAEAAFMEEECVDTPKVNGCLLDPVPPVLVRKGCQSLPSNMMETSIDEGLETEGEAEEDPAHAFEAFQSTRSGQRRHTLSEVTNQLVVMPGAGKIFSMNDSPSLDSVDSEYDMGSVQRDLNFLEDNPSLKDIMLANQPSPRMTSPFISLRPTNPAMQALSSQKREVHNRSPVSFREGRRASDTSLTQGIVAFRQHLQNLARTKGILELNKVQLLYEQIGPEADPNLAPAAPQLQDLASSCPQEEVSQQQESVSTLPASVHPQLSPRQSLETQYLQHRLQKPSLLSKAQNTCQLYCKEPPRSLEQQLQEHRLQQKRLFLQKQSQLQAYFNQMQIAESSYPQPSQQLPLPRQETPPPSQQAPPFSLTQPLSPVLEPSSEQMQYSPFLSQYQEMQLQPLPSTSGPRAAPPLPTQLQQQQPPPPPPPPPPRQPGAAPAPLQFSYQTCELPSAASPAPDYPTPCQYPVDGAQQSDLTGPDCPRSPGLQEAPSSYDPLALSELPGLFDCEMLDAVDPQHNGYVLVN

O=C(O)/C=C/c1ccc(O)c(O)c1 — IC50 (Human immunodeficiency virus 1; viral replication, inhibitor; TZM-bl, NL43; 48 h): 97.1 µM
CC1=C(Cc2cn(CC#N)nn2)C(=O)c2ccccc2C1=O — IC50 (Schistosoma mansoni; parasite growth; 72 h, larva): 1.54 µM
CO[C@H]1/C=C/O[C@@]2(C)Oc3c(C)c(O)c4c(O)c(c(/C=N/N5CCN(C6CCCC6)CC5)c(O)c4c3C2=O)NC(=O)/C(C)=C\C=C\[C@H](C)[C@H](O)[C@@H](C)[C@@H](O)[C@@H](C)[C@H](OC(C)=O)[C@@H]1C — IC50 (Trypanosoma cruzi; parasite growth, absorbance; Vero, TULAHUEN; 96 h, intracellular, amastigote): 5.88 µM
Cc1cc([C@@H](C)Nc2ccccc2C(=O)O)c2nc(N3CCC(F)(F)CC3)c(C#N)c(=O)n2c1 — remaining binding (Mitogen-activated protein kinase kinase kinase 9 (MAP3K9, Homo sapiens, UniProt P80192); binding, competition with immobilised ligand; 10 µM): 100%
C[C@@H](O[C@H]1OCCN(Cc2n[nH]c(=O)[nH]2)[C@H]1c1ccc(F)cc1)c1cc(C(F)(F)F)cc(C(F)(F)F)c1 — IC50 (Human immunodeficiency virus 1; viral replication, ELISA; human PBMC, BAL; 7 days): 5.4 µM
COC(=O)Nc1nc2cc(C(=O)c3ccc(F)cc3)ccc2[nH]1 — IC50 (Cryptococcus neoformans; microbial growth, broth dilution; 72 h): 0.625 µM
C=CC(=O)N1CCC(COCC(=O)N2CCN(c3nc(-c4cnc(N)nc4C(F)F)nc(N4CCOC[C@@H]4C)n3)CC2)CC1 — remaining binding (Serine/threonine-protein kinase 35 (STK35, Homo sapiens, UniProt Q8TDR2); binding, competition with immobilised ligand; 1 µM): 94%
COC(=O)Nc1nc2ccc(C(=O)c3ccccc3)cc2[nH]1 — IC50 (Cryptococcus neoformans; microbial growth, broth dilution; 72 h): 0.312 µM
CNc1ncc2c(/C=C/C(=O)N3CCC(OC)CC3)nn(Cc3cccc(C(F)(F)F)c3)c2n1 — remaining activity (Serine/threonine-protein kinase SIK2 (SIK2, Homo sapiens, UniProt Q9H0K1); enzyme activity, inhibitor, radiometric; 1 µM): 101%
CC1=C(/C=C/C(C)=C/C=C/C(C)=C/C=C/C=C(C)/C=C/C=C(C)/C=C/C2=C(C)CCCC2(C)C)C(C)(C)CCC1 — IC50 (Trypanosoma cruzi; parasite growth, absorbance; Vero, TULAHUEN; 96 h, intracellular, amastigote): 49.4 µM
CC1=C(Cn2cc(CBr)nn2)C(=O)c2ccccc2C1=O — IC50 (Schistosoma mansoni; parasite growth; 72 h, larva): 1.02 µM
COc1cc(-c2cncc3c2CN(C)Cc2cc(N4CCNCC4)ccc2-3)cc(OC)c1OC — remaining activity (Myosin-IIIb (MYO3B, Homo sapiens, UniProt Q8WXR4); enzyme activity, inhibitor; 1 µM): 104%
